Assay results of several laboratories.
“And” joins repeats or separate records; there may be more than shown. ± marks the error that the study gave.
RPA1 N-terminal domain: Replication protein A 70 kDa DNA-binding subunit, N-terminal domain (RPA1, Homo sapiens, UniProt P27694)
Lysophospholipase-like protein 1: Lysophospholipase-like protein 1 (Mus musculus, UniProt Q3UFF7)
Grm2: Metabotropic glutamate receptor 2 (Grm2, Rattus norvegicus, UniProt P31421)
GRM4: Metabotropic glutamate receptor 4 (GRM4, Homo sapiens, UniProt Q14833)
E3 ubiquitin-protein ligase NEDD4: E3 ubiquitin-protein ligase NEDD4 (Homo sapiens, UniProt P46934)

Amino acid sequences for entries named in this document (tags omitted). Residues count along the entry.
UniProt Q3UFF7, whole entry: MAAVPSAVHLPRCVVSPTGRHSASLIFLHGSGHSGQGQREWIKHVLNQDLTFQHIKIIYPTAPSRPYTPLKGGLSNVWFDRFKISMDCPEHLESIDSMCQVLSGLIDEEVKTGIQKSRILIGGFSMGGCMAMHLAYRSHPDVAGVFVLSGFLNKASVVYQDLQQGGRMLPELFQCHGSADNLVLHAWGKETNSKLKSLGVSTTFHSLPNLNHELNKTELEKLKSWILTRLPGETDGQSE
UniProt P31421, 19-872 limits assumed: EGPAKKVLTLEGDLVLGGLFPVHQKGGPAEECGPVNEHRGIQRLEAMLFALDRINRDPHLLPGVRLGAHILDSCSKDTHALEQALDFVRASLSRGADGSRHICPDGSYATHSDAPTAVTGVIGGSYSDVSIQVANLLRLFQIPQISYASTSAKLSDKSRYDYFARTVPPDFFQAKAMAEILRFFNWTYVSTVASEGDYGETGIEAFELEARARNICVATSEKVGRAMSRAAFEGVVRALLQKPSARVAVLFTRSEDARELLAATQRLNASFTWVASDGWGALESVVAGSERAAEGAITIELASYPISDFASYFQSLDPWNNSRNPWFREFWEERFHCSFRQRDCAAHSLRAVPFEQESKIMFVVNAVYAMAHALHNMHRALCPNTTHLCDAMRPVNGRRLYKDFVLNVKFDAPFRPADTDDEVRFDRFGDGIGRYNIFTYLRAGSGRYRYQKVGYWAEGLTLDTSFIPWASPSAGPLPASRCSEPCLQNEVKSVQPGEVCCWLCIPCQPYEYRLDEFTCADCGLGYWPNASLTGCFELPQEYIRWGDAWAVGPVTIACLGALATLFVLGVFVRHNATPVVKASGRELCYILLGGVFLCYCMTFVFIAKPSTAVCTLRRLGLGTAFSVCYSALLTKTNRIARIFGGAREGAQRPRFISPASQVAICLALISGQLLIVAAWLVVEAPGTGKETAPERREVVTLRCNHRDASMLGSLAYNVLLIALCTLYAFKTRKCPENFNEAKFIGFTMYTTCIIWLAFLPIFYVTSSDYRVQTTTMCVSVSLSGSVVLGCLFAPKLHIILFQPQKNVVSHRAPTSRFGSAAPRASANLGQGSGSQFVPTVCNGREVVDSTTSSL
UniProt Q14833, 33-912 limits assumed: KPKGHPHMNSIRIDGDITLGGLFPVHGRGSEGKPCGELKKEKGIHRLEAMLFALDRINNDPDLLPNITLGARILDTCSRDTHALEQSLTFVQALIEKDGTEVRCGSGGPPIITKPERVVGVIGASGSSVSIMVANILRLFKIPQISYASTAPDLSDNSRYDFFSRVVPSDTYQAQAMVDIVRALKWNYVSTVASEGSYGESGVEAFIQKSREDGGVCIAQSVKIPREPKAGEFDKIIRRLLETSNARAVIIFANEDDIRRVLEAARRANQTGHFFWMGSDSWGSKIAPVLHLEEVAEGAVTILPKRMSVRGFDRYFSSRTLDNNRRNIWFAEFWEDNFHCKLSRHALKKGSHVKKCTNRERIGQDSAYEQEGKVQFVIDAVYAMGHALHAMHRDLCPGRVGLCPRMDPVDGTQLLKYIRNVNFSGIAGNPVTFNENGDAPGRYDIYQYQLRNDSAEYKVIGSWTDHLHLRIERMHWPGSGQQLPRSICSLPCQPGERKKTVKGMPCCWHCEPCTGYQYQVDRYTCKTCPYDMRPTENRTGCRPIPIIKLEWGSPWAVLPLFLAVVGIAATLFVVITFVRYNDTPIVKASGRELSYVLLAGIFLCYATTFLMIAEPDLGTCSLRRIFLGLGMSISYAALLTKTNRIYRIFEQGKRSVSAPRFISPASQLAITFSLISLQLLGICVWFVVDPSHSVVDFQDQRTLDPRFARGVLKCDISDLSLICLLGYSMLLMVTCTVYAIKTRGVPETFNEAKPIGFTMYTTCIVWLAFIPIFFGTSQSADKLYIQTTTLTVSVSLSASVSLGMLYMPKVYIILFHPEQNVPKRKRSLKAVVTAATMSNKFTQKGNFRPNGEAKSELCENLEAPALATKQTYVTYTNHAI
UniProt P46934, whole entry, looked up: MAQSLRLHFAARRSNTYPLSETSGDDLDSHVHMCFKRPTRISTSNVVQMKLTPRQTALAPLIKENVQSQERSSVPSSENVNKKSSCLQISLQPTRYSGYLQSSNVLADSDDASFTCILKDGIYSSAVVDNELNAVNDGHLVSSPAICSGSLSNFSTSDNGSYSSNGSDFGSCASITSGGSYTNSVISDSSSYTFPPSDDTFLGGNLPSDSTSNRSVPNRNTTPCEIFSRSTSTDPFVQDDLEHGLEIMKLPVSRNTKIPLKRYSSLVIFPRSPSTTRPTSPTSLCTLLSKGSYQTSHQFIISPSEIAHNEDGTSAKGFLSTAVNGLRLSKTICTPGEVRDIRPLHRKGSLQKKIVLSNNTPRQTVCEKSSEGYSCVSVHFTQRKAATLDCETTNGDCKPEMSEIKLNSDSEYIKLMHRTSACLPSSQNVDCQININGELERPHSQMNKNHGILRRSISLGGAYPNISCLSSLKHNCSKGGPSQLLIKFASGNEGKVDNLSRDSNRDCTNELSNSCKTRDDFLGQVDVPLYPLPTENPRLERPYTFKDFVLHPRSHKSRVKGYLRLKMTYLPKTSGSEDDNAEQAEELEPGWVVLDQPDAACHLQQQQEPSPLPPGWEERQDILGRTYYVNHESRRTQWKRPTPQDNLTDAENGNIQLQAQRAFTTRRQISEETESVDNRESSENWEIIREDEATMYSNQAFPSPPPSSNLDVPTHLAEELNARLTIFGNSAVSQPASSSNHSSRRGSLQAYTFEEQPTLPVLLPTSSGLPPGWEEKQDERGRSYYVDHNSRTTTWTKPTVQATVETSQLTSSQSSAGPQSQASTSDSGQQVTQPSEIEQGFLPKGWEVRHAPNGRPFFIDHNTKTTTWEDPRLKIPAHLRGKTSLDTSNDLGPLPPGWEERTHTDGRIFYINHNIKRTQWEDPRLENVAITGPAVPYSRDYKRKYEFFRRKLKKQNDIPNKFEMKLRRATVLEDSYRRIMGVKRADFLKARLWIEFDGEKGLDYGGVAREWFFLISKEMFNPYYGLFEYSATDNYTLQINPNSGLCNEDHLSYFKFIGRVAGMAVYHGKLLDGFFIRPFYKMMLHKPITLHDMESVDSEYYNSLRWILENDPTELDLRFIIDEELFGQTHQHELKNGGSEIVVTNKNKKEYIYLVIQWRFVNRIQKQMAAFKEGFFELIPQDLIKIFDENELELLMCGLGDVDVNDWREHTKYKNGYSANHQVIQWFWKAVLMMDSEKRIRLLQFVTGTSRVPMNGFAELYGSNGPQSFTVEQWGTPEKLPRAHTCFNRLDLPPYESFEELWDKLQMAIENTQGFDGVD
UniProt P05067, 672-713 limits assumed: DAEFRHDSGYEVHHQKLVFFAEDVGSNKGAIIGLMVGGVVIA
UniProt P07900, 1-236 S52A limits assumed: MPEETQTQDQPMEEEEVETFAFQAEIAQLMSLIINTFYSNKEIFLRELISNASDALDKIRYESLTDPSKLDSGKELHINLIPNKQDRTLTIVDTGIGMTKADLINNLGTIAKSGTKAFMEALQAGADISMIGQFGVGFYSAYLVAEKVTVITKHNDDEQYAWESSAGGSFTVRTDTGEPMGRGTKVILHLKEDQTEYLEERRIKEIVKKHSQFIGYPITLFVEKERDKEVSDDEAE
UniProt Q5VWZ2, whole entry: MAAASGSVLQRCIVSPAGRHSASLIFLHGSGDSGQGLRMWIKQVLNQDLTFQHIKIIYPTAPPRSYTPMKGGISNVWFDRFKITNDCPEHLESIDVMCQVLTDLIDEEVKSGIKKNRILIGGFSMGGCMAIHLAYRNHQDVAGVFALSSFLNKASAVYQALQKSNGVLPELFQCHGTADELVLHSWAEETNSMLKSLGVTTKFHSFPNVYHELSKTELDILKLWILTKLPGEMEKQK
UniProt P45983, 1-384 isoform 3: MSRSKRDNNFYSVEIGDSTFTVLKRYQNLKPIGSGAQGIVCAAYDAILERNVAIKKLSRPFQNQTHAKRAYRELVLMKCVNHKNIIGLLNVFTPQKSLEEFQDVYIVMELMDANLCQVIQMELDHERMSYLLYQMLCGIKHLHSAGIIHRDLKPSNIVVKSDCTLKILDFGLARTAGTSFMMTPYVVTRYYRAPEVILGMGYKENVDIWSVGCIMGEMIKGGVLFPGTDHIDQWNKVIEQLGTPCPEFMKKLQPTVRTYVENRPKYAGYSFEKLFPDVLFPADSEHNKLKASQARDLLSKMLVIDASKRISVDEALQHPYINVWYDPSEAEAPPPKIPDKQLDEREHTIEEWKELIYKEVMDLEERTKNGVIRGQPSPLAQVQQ
UniProt P45983, 1-384 isoform 3 C116S: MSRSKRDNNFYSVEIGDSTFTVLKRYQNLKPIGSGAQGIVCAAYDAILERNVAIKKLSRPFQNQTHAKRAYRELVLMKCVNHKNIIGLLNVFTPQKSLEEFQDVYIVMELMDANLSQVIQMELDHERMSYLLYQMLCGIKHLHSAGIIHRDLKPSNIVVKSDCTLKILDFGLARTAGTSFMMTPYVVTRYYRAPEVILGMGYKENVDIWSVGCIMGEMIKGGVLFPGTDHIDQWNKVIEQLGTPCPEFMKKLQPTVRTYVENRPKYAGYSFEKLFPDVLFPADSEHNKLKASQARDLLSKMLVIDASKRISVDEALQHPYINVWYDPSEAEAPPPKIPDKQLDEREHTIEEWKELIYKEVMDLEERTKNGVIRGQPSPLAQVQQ
UniProt B2RXH2, whole entry: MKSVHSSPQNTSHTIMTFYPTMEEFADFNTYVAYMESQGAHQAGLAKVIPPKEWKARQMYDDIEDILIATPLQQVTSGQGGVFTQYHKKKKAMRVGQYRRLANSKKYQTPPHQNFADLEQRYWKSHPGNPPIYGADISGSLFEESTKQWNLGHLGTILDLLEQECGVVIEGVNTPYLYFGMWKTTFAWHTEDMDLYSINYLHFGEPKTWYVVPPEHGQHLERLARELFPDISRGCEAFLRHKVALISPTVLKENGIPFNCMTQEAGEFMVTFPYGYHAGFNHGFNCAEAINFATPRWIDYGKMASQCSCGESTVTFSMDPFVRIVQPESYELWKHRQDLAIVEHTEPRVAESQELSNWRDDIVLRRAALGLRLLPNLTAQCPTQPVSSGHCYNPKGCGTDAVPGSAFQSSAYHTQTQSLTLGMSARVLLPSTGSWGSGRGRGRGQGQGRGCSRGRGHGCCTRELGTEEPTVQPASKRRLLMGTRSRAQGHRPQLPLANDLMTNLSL
UniProt Q00960, 27-1482 limits assumed: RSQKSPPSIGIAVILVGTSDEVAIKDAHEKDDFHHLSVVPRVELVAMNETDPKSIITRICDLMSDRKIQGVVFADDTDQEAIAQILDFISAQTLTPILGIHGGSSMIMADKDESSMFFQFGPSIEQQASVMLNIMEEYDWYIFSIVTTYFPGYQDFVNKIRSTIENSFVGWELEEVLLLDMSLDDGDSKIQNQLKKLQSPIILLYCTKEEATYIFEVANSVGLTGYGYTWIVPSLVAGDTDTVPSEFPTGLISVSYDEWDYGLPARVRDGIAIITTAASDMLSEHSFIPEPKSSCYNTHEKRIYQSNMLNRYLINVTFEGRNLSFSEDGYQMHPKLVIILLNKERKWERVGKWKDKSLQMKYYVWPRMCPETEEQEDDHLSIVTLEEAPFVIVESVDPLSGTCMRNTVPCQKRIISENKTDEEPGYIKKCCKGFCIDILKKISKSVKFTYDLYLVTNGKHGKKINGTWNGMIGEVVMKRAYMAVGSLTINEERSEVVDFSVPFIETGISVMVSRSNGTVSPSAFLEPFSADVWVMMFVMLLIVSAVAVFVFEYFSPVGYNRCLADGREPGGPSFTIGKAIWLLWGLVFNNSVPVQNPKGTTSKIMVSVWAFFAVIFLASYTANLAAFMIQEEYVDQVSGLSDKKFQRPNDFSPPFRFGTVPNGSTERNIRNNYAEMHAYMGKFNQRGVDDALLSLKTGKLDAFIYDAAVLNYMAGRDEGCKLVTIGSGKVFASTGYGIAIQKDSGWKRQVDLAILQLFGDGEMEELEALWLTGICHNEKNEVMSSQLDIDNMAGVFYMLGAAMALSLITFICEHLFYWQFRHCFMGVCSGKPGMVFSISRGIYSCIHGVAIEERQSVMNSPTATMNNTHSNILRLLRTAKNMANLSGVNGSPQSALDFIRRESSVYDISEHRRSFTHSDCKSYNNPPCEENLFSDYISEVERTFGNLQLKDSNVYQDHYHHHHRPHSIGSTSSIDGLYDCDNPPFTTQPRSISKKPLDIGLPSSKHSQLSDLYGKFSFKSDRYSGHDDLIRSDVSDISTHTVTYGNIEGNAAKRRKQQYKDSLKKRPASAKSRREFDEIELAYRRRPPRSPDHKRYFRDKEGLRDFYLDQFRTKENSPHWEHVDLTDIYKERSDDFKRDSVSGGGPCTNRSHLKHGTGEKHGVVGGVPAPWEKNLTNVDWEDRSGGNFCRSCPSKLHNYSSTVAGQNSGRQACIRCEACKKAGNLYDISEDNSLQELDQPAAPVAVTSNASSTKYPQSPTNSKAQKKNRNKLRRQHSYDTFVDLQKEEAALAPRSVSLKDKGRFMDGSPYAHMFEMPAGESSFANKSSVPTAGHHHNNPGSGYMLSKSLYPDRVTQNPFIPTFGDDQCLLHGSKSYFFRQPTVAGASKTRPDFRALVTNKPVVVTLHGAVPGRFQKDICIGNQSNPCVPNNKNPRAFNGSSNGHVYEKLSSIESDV

For `Cc1ccc(C(=O)Nc2ccccc2C(=O)O)cc1S(=O)(=O)Nc1ccccc1`, the ligand efficiency was 0.18 (RPA1 N-terminal domain; binding, fluorescence polarisation competition; together with: FITC-ATRIP probe).
With `Nc1nc(SCc2ccc(Cl)cc2)nn1S(=O)(=O)c1ccc(C(F)(F)F)nc1` the activation was 7% (Lysophospholipase-like protein 1; activator, gel-based ABPP, FP-rhodamine; HEK293 overexpressing Lysophospholipase-like protein 1; 10 µM).
The response of `CN1CCN(Cc2ccc3c(c2)c(=O)c(C(N)=O)cn3-c2ccc(F)cc2)CC1` is reported as 1.15 ± 0.32% (Grm2; calcium mobilization, negative allosteric modulator; 30 µM, together with: glutamate 100 µM; relative to: glutamate maximum).
`O=C(Nc1cccc(-c2cc[nH]n2)c1)C(NS(=O)(=O)c1cccs1)c1ccccc1` (centres unmarked) — result for cAMP level: “no effect” (Uracil nucleotide/cysteinyl leukotriene receptor, long isoform (GPR17, Homo sapiens, UniProt Q13304); attenuation of MDL-mediated inhibition, antagonist; GLUTag; 10 µM, together with: MDL 100 nM + forskolin 10 µM).
`C[C@H](Nc1nc(N[C@@H](C)C2CC2)nc(-c2cccc(C(F)(F)F)n2)n1)C1CC1` has a maximal inhibition of 110% (IDH1 (Homo sapiens, UniProt O75874, R132H); enzyme activity, inhibitor; mutant heterodimer reverse reaction).
For `O=C(/C=C/c1ccc(O)c(OC(F)(F)F)c1)C1=C(/C=C/c2ccc(O)c(OC(F)(F)F)c2)OCCC1`, “Aβ band density” read 7330 ± 908% (APP (Homo sapiens, UniProt P05067); SDS-PAGE western blot, refers to: Aβ1-42 species 75-200 kDa; 30 µM, 24 h, 37 °C, together with: Aβ 10 µM; relative to: DMSO control).
`C#CCOc1ccc(C[C@H](N)C(=O)N[C@@H](CC(=O)O)C(=O)N[C@@H](CO)C(=O)N[C@@H](CCC(=O)O)C(=O)N[C@H](C(=O)NCC(=O)N[C@@H](CCC(=O)O)C(=O)N[C@@H](CS)C(=O)O)[C@@H](C)O)cc1`: “fold decrease in binding affinity” 5 fold (Kelch-like ECH-associated protein 1, Kelch domain (KEAP1, Homo sapiens, UniProt Q14145); Kelch domain binding, plate-immobilized binding; concentration not given; relative to: KD over cyclic parent macrocycle).
`C/C=C/Cn1c(Cc2cc(OC)c(OC)c(OC)c2)nc2c(N)ncnc21` has a ΔG of -7.35 ± 0.38 kcal/mol (Heat shock protein HSP 90-alpha, N-terminal domain (HSP90AA1, Homo sapiens, UniProt P07900, S52A); isothermal titration calorimetry; 298 K, N-terminal domain S52A).
`Nc1nc(SCc2ccc(Cl)c(Cl)c2)nn1S(=O)(=O)c1ccc2c(c1)CCO2` has an FP-rhodamine labelling of 2.4 fold (LYPLAL1 (Homo sapiens, UniProt Q5VWZ2); activator, gel-based ABPP; purified protein; relative to: DMSO).
`CN(Cc1ccccc1)Cc1cn(CC(C)(C)c2c[nH]c3ccccc23)nn1` gave an Emax of 95 ± 1% (GLP1R (Homo sapiens, UniProt P43220); cAMP accumulation, positive allosteric modulator, HTRF; 0.6 µM, purified compound, together with: GLP-1(9-36) at EC20; relative to: BETP).
For `Cc1cc(NC(=O)c2cccc(NC(=O)C3=CC(C)(C)CC3=O)c2)ccc1Nc1nccc(-c2cccnc2)n1`, the remaining activity was 0.0265 (MAPK8 (Homo sapiens, UniProt P45983); kinase activity, inhibitor; 133.3 µM, unit not given, together with: 10 mM GSH; relative to: DMSO).
The response of `O=C(Nc1ccc(F)cc1)C12CC1/C(=N\O)c1ccccc1O2` (centres unmarked) is reported as 121 ± 8.6% (GRM4; positive allosteric modulator, calcium mobilization; CHO expressing Gqi5; concentration not given, together with: glutamate EC20; relative to: glutamate 1 mM).
For `Cc1cc(NC(=O)c2cccc(NC(=O)C3=CC(C)(C)CCC3=O)c2)ccc1Nc1nccc(-c2cccnc2)n1`, the koff was 0.102 s⁻¹ (MAPK8 (Homo sapiens, UniProt P45983, C116S); surface plasmon resonance; 100, 300, 1000 nM, 1:1 binding model).
`CC(C)(C)CC(C)(C)Nc1c(-c2ccc3c(c2)CN(C2CCC(=O)NC2=O)C3=O)nc2ccccn12` (centres unmarked) gave a Dmax of 98% (WEE1/CRBN (Homo sapiens, UniProt P30291+Q96SW2); degrader, HiBiT; Jurkat; 5 h).
For `Nc1nc(SCc2ccc(Cl)cc2)nn1S(=O)(=O)c1cccc2c1CCCC2`, the activation was 44% (Lysophospholipase-like protein 1; activator, gel-based ABPP, FP-rhodamine; HEK293 overexpressing Lysophospholipase-like protein 1; 10 µM).
`COc1ccc(NC(=O)CN2CCCN(S(=O)(=O)c3ccc(C)cc3C)CC2)c(OC)c1` has a maximal response of 42.8% (GRM4; calcium mobilization, positive allosteric modulator; CHO cells with Gqi5; together with: glutamate; relative to: PHCCC maximal response).
With `CSc1ccccc1Nc1c(C(=O)O)ccnc1C(=O)O` the remaining activity was 5% (KDM4E (Homo sapiens, UniProt B2RXH2); inhibitor, FDH-coupled spectrophotometry, refers to: formaldehyde; 200 µM).
The EC50 of `COC(=O)[C@@H]1C(c2nc3cncnc3[nH]2)=Cc2cc3c(cc2[C@H]1c1cc(OC)c(OC)c(OC)c1)OCO3` is reported as 43.4 ± 2.1 µM (Leishmania infantum; iRFP fluorescence; mouse splenocytes infected, amastigote, iRFP, ex vivo splenic explant; 48 h).
`Cc1nc(-c2ccc(OCC(C)C)c(C#N)c2)sc1C(N)=O` gave an efficacy of 61 ± 6.6% (Grm2/Grm4 (Rattus norvegicus, UniProt P31421+P31423); thallium flux, positive allosteric modulator; HEK293 GIRK; together with: glutamate EC20; relative to: glutamate max).
The KD ratio of `CCCCN(CCc1ccc(Cl)c(Cl)c1)C[C@H](O)COc1ccc(NS(C)(=O)=O)cc1` is reported as 10.3 fold (Glutamate NMDA receptor; Grin1/Grin2b (Grin1/Grin2b, Rattus norvegicus, UniProt P35439+Q00960); whole-cell voltage clamp; HEK cells; relative to: pH 7.6 over pH 6.9).
The kcat of `C[C@H](NC(=O)[C@H](CCCCN)NC(=O)CNC(=O)CNC(=O)[C@@H](NC(=O)[C@@H](NC(=O)[C@H](Cc1c[nH]c2ccccc12)NC(=O)c1ccccc1N)[C@@H](C)O)[C@@H](C)O)C(=O)N[C@@H](CCCCNc1ccc([N+](=O)[O-])cc1[N+](=O)[O-])C(N)=O` is reported as 0.0033 s⁻¹ (Mitochondrial intermediate peptidase (MIPEP, Homo sapiens, UniProt Q99797); substrate, FRET peptide hydrolysis).
The probe labelling of `Cc1nc2ccc(S(=O)(=O)n3nc(NCCc4ccc(Cl)cc4)nc3N)cc2s1` is reported as 1.1 fold (Lysophospholipase-like protein 1; activator, gel-based ABPP FP-rhodamine; relative to: DMSO).
For `O=C(Nc1ccccc1)C12CC1/C(=N\O)c1cc(F)ccc1O2` (centres unmarked), the response was 139% (GRM4; positive allosteric modulator, calcium mobilization; CHO expressing Gqi5; concentration not given, together with: glutamate EC20; relative to: (±)-PHCCC).
For `COC(=O)[C@@]1(C)C=C(C(=O)Nc2cccc(C(=O)NC34CC(Nc5nccc(-c6cccnc6)n5)(C3)C4)c2)C(=O)CC1`, the remaining activity was 0.999 fraction of control (MAPK9 (Homo sapiens, UniProt P45984); enzyme activity, inhibitor; 2.788e-05 µM).
`Cc1ccc(C(=O)Nc2cc(Br)ccc2C(=O)O)cc1S(=O)(=O)Nc1ccc(Br)cc1` gave a ligand efficiency of 0.22 (RPA1 N-terminal domain; binding, fluorescence polarisation competition; together with: FITC-ATRIP probe).
`COc1cc2c(cc1OC)C(=O)C(=Cc1ccccc1OC(=O)N(C)C)C2` has a KI of 0.00384 µM (Cocaine esterase (CES2, Homo sapiens, UniProt O00748); inactivator).
The response of `Cc1ccc(OCc2ccc3c(c2)c(=O)c(C(N)=O)cn3-c2ccc(F)cc2)cn1` is reported as 1.62 ± 0.23% (Grm2; calcium mobilization, negative allosteric modulator; 30 µM, together with: glutamate 100 µM; relative to: glutamate maximum).
For `CC(=O)N[C@@H](CC(C)C)C(=O)N[C@H](C(=O)N[C@@H](CO)C(=O)N[C@@H](CCCNC(=N)N)C(=O)Nc1ccc2c(CC(N)=O)cc(=O)oc2c1)C(C)C`, the kcat/Km ratio was 3 to 4 fold (MALT1 (Homo sapiens, UniProt Q9UDY8); substrate, fluorogenic peptide hydrolysis; relative to: cpd over Leu-Arg-Ser-Arg peptide).
With `COC(=O)[C@@H]1C(C=Nc2nccs2)=Cc2cc3c(cc2[C@H]1c1cc(OC)c(OC)c(OC)c1)OCO3` the EC50 was 7.5 ± 0.5 µM (Leishmania infantum; iRFP fluorescence; mouse splenocytes infected, amastigote, iRFP, ex vivo splenic explant; 48 h).
Under binding, `CC(C)Oc1cc(C(=O)N2CCC(N3CCN(C)CC3)CC2)ccc1Nc1ncc2c(n1)N(C1CCCC1)c1ccccc1C(=O)N2C` is recorded as “no binding” (non-BET bromodomains; BROMOscan; 10 µM).
`CCOC(=O)/C=C/CNCCCN1c2ccccc2CCc2ccc(Br)cc21` — result for “ubiquitination TR-FRET signal AUC”: 61400 a.u. and 47400 a.u. and 48800 a.u. (E3 ubiquitin-protein ligase NEDD4; inhibitor, Ub-TR-FRET; 11.11 µM, 1 h preincubation, HECT domain, together with: ATP 2 mM; higher = more ubiquitination).
`COc1ccc2c(c1)S(=O)(=O)N(CCCCCc1ccccc1)C(=O)O2` has an enzyme reactivation of less than 10% (Patatin-like phospholipase domain-containing protein 4 (PNPLA4, Homo sapiens, UniProt P41247); reversibility of inhibition, FP-rhodamine labelling after gel filtration; 25 µM, 8 h post-filtration).
For `CCOC(=O)/C=C/CNCCCCCN1c2ccccc2CCc2ccc(Cl)cc21`, “ubiquitination TR-FRET signal AUC” read 68200 a.u. and 102000 a.u. and 97300 a.u. and 70500 a.u. and 70900 a.u. and 94900 a.u. (E3 ubiquitin-protein ligase NEDD4; inhibitor, Ub-TR-FRET; 0.04572 µM, 1 h preincubation, HECT domain, together with: ATP 2 mM; higher = more ubiquitination).
`N#Cc1cnc(Nc2nc3ccccc3o2)nc1-c1ccc(Cl)cc1` has a maximal response of 2.5 ± 0.5% (Grm5 (Rattus norvegicus, UniProt P31424); calcium mobilization, negative allosteric modulator; together with: glutamate EC80; relative to: glutamate maximum).
Under “ubiquitination TR-FRET signal AUC”, `CCOC(=O)/C=C/CNCCCCN1c2ccccc2CCc2ccc(Cl)cc21` is recorded as 352000 a.u. (E3 ubiquitin-protein ligase HECW2 (HECW2, Homo sapiens, UniProt Q9P2P5); inhibitor, Ub-TR-FRET; 100 µM, 1 h preincubation, DMSO up to 2%, together with: ATP 2 mM; higher = more ubiquitination).
`CC(=O)N[C@H]1[C@@H](O[C@H](C)[C@H](N)C(=O)O)O[C@H](CO)[C@H](O)[C@@H]1O` gave a ΔH of -12 ± 0.3 kcal/mol (CLEC10A, carbohydrate recognition domain (Homo sapiens, UniProt Q8IUN9); binding, ITC; 293 K).
`CCOC(=O)/C=C/CNCCCN1c2ccccc2CCc2ccc([N+](=O)[O-])cc21` — result for “ubiquitination TR-FRET signal AUC”: 147000 a.u. and 149000 a.u. and 150000 a.u. (E3 ubiquitin-protein ligase NEDD4; inhibitor, Ub-TR-FRET; 0.005081 µM, 1 h preincubation, HECT domain, together with: ATP 2 mM; higher = more ubiquitination).
`CC(=O)NCCCC[C@H](NC(C)=O)C(=O)Nc1ccc2c(C)cc(=O)oc2c1` has a kcat/KM of 16.3 ± 1.5 M⁻¹ s⁻¹ (HDAC8 (Homo sapiens, UniProt Q9BY41); deacetylation, substrate; 25 °C, together with: 150 nM enzyme).

Some of these lines once more:
`Cc1ccc(C(=O)Nc2cc(Br)ccc2C(=O)O)cc1S(=O)(=O)Nc1ccc(Br)cc1` gave a ligand efficiency of 0.22 (RPA1 N-terminal domain; binding, fluorescence polarisation competition; together with: FITC-ATRIP probe).
`COc1cc2c(cc1OC)C(=O)C(=Cc1ccccc1OC(=O)N(C)C)C2` has a KI of 0.00384 µM (Cocaine esterase (CES2, Homo sapiens, UniProt O00748); inactivator).
